Experimental data gathered from unrelated publications.
Each line is one published result; not all experiments were run side by side. Numbers after ± are the reported error.
Organism: Staphylococcus aureus

`CN(C)CCn1nc(C23CC4CC(CC(C4)C2)C3)n(C)c1=S` — result for “inhibition zone diameter”: 16 mm (IFO 3060; 200 µg/disc, 24 h, 37 °C).
`COc1cc(OC)c2c(c1)C(=O)c1cc3oc(=O)cc(-c4ccccc4)c3c(O)c1C2=O` — result for “inhibition zone diameter”: 10 mm (MTCC 96; 100 µg/disc).
For `CCOC(=O)C1=C(C)NC2=C(C(=O)CC(C)(C)C2)C1c1ccc(OCC(=O)NN=Cc2cc(Br)c(O)c(Br)c2)cc1OCC(=O)NN=Cc1cc(Br)c(O)c(Br)c1` (stereo not drawn), “inhibition zone diameter” read 10.9 ± 0.2 mm (6538P; concentration not given, 24 h, 37 °C).
Under “inhibition zone diameter”, `COc1c2c(cc3oc(=O)cc(-c4ccccc4)c13)C(=O)c1cc(C)cc(O)c1C2=O` is recorded as 12 mm (MTCC 96; 100 µg/disc).
`CC(=O)[O-].O.O.[O-]c1ccc(Br)cc1C=NCCN1CCOCC1.[Zn+2]` — result for “inhibition zone diameter”: 19 mm (20 µL of 100 µM per disc).
For `Cc1ncc([N+](=O)[O-])n1CCOCc1nnc(SCC(=O)c2ccc(Cl)cc2)o1`, “inhibition zone diameter” read 15 to 20 mm (DMSO; 60 µg/mL, 24 h, 37 °C).
`Cn1c(C23CC4CC(CC(C4)C2)C3)nn(CCN2CCCCC2)c1=S`: “inhibition zone diameter” 23 mm (IFO 3060; 200 µg/disc, 24 h, 37 °C).
`CO[C@H]1O[C@H](COC(c2ccccc2)(c2ccccc2)c2ccccc2)[C@@H](OS(=O)(=O)c2ccccc2)[C@H](OS(=O)(=O)c2ccccc2)[C@H]1OS(=O)(=O)c1ccccc1` — result for “inhibition zone diameter”: 15 ± 0.3 mm (concentration not given).
`Cc1ncc([N+](=O)[O-])n1CCOCc1nnc(SCC(=O)c2ccc([N+](=O)[O-])cc2)o1`: “inhibition zone diameter” 15 to 20 mm (DMSO; 60 µg/mL, 24 h, 37 °C).
Under “inhibition zone diameter”, `CCN(CC)CCSc1nnc(C23CC4CC(CC(C4)C2)C3)n1C` is recorded as 14 mm (IFO 3060; 200 µg/disc, 24 h, 37 °C).
`Cc1ncc([N+](=O)[O-])n1CCOCc1nnc(SCC(=O)c2ccc(Br)cc2)o1`: “inhibition zone diameter” 15 to 20 mm (DMSO; 60 µg/mL, 24 h, 37 °C).
`Fc1ccc(CSc2nnc(C34CC5CC(CC(C5)C3)C4)n2-c2ccccc2)cc1`: “inhibition zone diameter” 16 mm (IFO 3060; 200 µg/disc, 24 h, 37 °C).

For quick reference, copied from above:
Under “inhibition zone diameter”, `COc1c2c(cc3oc(=O)cc(-c4ccccc4)c13)C(=O)c1cc(C)cc(O)c1C2=O` is recorded as 12 mm (MTCC 96; 100 µg/disc).
